Experimental data gathered from unrelated publications.
Compare with care: the assays were run in different laboratories. “And” joins repeats or separate records; there may be more than shown. ± gives the spread as reported.
ADRA2C: Alpha-2C adrenergic receptor (ADRA2C, Homo sapiens, UniProt P18825)
UCHL1: Ubiquitin carboxyl-terminal hydrolase isozyme L1 (UCHL1, Homo sapiens, UniProt P09936)
Voltage-dependent P/Q-type calcium channel subunit alpha-1A: Voltage-dependent P/Q-type calcium channel subunit alpha-1A (Homo sapiens, UniProt O00555)
BEST1: BEST1 (Homo sapiens, UniProt O76090)

| SMILES | target or system | assay | system | conditions | scale | endpoint | value |
| --- | --- | --- | --- | --- | --- | --- | --- |
| Cc1cc(Oc2ncccc2CN2CCN(c3ccccc3Br)CC2)ccc1-c1c(C)c(=O)[nH]c(=O)n1C | ADRA2C | binding, radioligand binding | – | added: [3H]rauwolscine | reference: Ki alpha2A over Ki alpha2C | selectivity ratio | 7 |
| Nc1nc2c(ncn2[C@@H]2O[C@H](COP(=O)(O)O)[C@@H](O)[C@H]2O)c(=O)[nH]1 | GUK1 (Homo sapiens, UniProt Q16774, Y81A) | enzyme activity, NADH-coupled | – | 1000 µM | – | reaction rate | 3.85 s⁻¹ and 4.47 s⁻¹ and 4.41 s⁻¹ |
| C[C@@H]1[C@H](O)[C@@H](C)/C=C/C=C/C=C/C=C/C=C/C=C/C=C/[C@H](O[C@@H]2O[C@H](C)[C@@H](O)[C@H](N)[C@@H]2O)C[C@@H]2O[C@](O)(C[C@@H](O)C[C@@H](O)[C@H](O)CC[C@@H](O)C[C@@H](O)CC(=O)O[C@H]1C)C[C@H](O)[C@H]2C(=O)O | Trypanosoma cruzi | reporter translation, Renilla luciferase mRNA translation | cell-free extract | 40 µM | reference: DMSO | inhibition | 93.9% |
| C=CC(=O)N1CCC(COCC(=O)N2CCN(c3nc(-c4cnc(N)nc4C(F)F)nc(N4CCOC[C@@H]4C)n3)CC2)CC1 | PLK4 (Homo sapiens, UniProt O00444) | KINOMEscan | – | 1 µM | – | remaining binding | 87% |
| Cc1ccccc1NC(=O)C(C#N)=Cc1cc2c(cc1[N+](=O)[O-])OCO2 | UCHL1 | covalent, intact protein LC-MS | – | 12.5 µM | – | labelling | 18% |
| CN(C)CCC=C1c2ccccc2C=Cc2ccccc21 | Voltage-dependent P/Q-type calcium channel subunit alpha-1A | ion current, antagonist | HEK293 | 30 µM | – | inhibition | 97% |
| O=C(CCl)Cc1c(F)cccc1F | UCHL1 | covalent, intact protein LC-MS | – | 12.5 µM | – | labelling | 4.74% |
| CC(=O)N[C@H](C(=O)N1C[C@H](O)C[C@H]1C(=O)NCc1ccc(-c2scnc2C)cc1)C(C)(C)SCCCCCCNC(=O)C[C@@H]1N=C(c2ccc(Cl)cc2)c2c(sc(C)c2C)-n2c(C)nnc21 | Bromodomain-containing protein 4, BD1 (BRD4, Homo sapiens, UniProt O60885) | ITC | – | concentration not given, 25 °C, compound in cell, protein in syringe | – | binding stoichiometry | 0.73 ± 0.03 |
| CC(=C/C(=O)O)/C=C/C=C(\C)C1C=C2C(C)(C)CCCC2(C)O1 (stereo not shown) | Rhodopsin (RHO, Homo sapiens, UniProt P08100, P23H) | ER retention, immunostaining co-localization, measured: opsin with calnexin | COS-7 transfected P23H | 50.00 µM | – | Pearson correlation coefficient | 0.55 |
| O=C(O)C1=CCNCC1 | BEST1 | whole-cell patch clamp | HEK293 transiently expressing channel | concentration not given, membrane potential -60 mV | – | current density | -78.9 pA/pF and -41 pA/pF and -14.6 pA/pF and -33 pA/pF and -16.4 pA/pF and -12.3 pA/pF |
| O=c1nc(SCc2cc(F)cc(C(F)(F)F)c2)nc(SCc2ccc3nc(Cl)ccc3c2)[nH]1 | TOP2A (Homo sapiens, UniProt P11388) | DNA cleavage | – | 15.6 µM, replicate 1 | – | linear DNA | 0% |
| CCC(NC(=O)CCc1c(C)c2cc(Cl)c(O)cc2oc1=O)C(=O)O (stereo not shown) | B4GALT1 (Homo sapiens, UniProt P15291) | enzyme activity, inhibitor, UDP-Glo | – | 100 µM | lower means stronger inhibition | luminescence | 63800 a.u. |
| CC(C)N(C)c1ccc(NS(=O)(=O)c2cc(Cl)cc(Cl)c2O)cc1F | malate dehydrogenase | enzyme activity, inhibitor | – | 200 µM, pH 7.0, 1% DMSO, aggregation counter-screen | – | remaining activity | 110% |
| N#Cc1ccc2[nH]cc(CCCCN3CCN(c4ccc5oc(C(N)=O)cc5c4)CC3)c2c1 | SLC6A4 (Homo sapiens, UniProt P31645, F556A/I172M) | [3H]5-HT uptake, inhibitor | COS-7 | – | – | Hill coefficient | 1.15 ± 0.14 |
| COc1ccc(S(=O)(=O)n2nc(NCc3ccc(Cl)cc3)nc2N)cc1 | Lysophospholipase-like protein 1 (Mus musculus, UniProt Q3UFF7) | enzyme activity, activator, gel-based ABPP | purified protein | concentration not given, added: FP-rhodamine | reference: DMSO | probe labeling increase | 1.1 fold |
| Nc1ncnc2c1ncn2[C@@H]1O[C@H](COP(=O)(O)OP(=O)(O)O)[C@@H](O)[C@H]1O | CKMT1A (Homo sapiens, UniProt P12532, D359N) | substrate, Kinase-Glo luminescence | – | pH 7.0, reverse reaction, D321N mutant, added: second substrate in excess | – | Km | 9 ± 1 µM |
| COc1cc(-c2cc(C(C)=O)n3ccccc23)cc(OC)c1Cn1ccnc1 | Bromodomain-containing protein 4, BD2 (BRD4, Homo sapiens, UniProt O60885) | – | – | – | – | ΔTm | 5.1 °C |
| COc1cccc2c(Nc3ccc4[nH]c(C(=O)N/N=C/c5ccc(SC)cc5)cc4c3)cc(C)nc12 | THRA (Homo sapiens, UniProt P10827) | reporter gene, Gal4 hybrid reporter | – | 3 µM | reference: vehicle | activation | 0.91 fold |
| Cc1cc(Oc2ncccc2CN2CCN(c3cccc(F)c3)CC2)ccc1-c1c(C)c(=O)[nH]c(=O)n1C | ADRA2C | binding, radioligand binding | – | added: [3H]rauwolscine | reference: Ki alpha2A over Ki alpha2C | selectivity ratio | 4 |
| NCCCCC(=O)O | SLC6A6 (Homo sapiens, UniProt P31641, Y138A) | binding, microscale thermophoresis | – | 32.7 nM, fitted curve | higher = more binding | fraction bound | 0 |
| COC(=O)c1cn(C)c2ccc(-c3cccnc3)cc12 | Vitamin D3 receptor (VDR, Homo sapiens, UniProt P11473) | reporter gene, Gal4 hybrid reporter | – | 10 µM | reference: vehicle | activation | 1.43 fold |
| O=C(NCCNC(=O)c1n[nH]c(=O)c2ccccc12)c1cccc(CN2C(=O)CNC2=O)c1 | TNKS (Homo sapiens, UniProt O95271) | enzyme activity, inhibitor | – | – | – | ligand efficiency | 0.42 |

| SMILES | target or system | assay | system | conditions | scale | endpoint | value |
| --- | --- | --- | --- | --- | --- | --- | --- |
| COc1cccc(Nc2nc(NCC3CCCO3)c3ccccc3n2)c1.Cl (stereo not shown) | Trypanosoma cruzi | reporter translation, Renilla luciferase mRNA translation | cell-free extract | 40 µM | reference: DMSO | inhibition | 23.1% |
| N[C@@H](Cc1c[nH]c2ccccc12)C(=O)O | Phospho-2-dehydro-3-deoxyheptonate aldolase 2, chloroplastic (DHS2, Arabidopsis thaliana, UniProt Q00218) | differential scanning fluorimetry | – | added: AAA 1 mM | – | melting temperature | increased |
| O=C(COP(=O)(O)O)[C@@H](O)[C@H](O)[C@H](O)COP(=O)(O)O | Phosphoglycerate mutase 1 (Homo sapiens, UniProt P18669) | activator | – | 0.03906 mM, wild-type enzyme, unit not given | relative to no compound | enzyme activity | 1.18 and 1.33 and 1.15 |
| CO[C@@H]1O[C@@H](C)[C@@H](O)[C@@H](O)[C@@H]1O | fleA (Aspergillus fumigatus, UniProt Q4WW81) | ITC | – | – | – | -TΔS | 1.84 kcal/mol |
| O=C(O)c1ccc(O)cc1 | BEST1 | whole-cell patch clamp | HEK293 transiently expressing channel | concentration not given, membrane potential 20 mV | – | current density | 5.02 pA/pF and 9.6 pA/pF and 8.09 pA/pF and 6.32 pA/pF and 7.17 pA/pF and 12 pA/pF and 5.87 pA/pF |
| O=c1nc(SCc2cc(F)cc(C(F)(F)F)c2)nc(SCc2ccc3sccc3c2)[nH]1 | TOP2B (Homo sapiens, UniProt Q02880) | decatenation | – | 7.8 µM | – | mean decatenated DNA | 100% |
| CC[C@H](C)[C@@H]1NC(=O)[C@H](C)NC(=O)[C@H]([C@@H](C)CC)NC(=O)[C@H](CCC(N)=O)NC(=O)[C@H](C)NC(=O)[C@H](CCCNC(=N)N)NC(=O)[C@H](C(C)C)NC(=O)[C@H](CC(C)C)NC(=O)[C@H](CCC(=O)O)NC(=O)[C@H](CCCNC(=N)N)NC(=O)CNC(=O)[C@@H](NC(=O)[C@H](CC(C)C)NC(=O)[C@H](CCCCN)NC(=O)[C@@H](NC(=O)[C@@H](NC(=O)[C@H](CCC(=O)O)NC(=O)[C@H](CCC(=O)O)NC(=O)[C@H](CCSC)NC(=O)[C@H](Cc2c[nH]c3ccccc23)NC(=O)[C@H](CO)NC(=O)[C@@H](N)CC(=O)O)C(C)C)[C@@H](C)CC)CSSC[C@@H]2NC(=O)[C@@H](NC(=O)[C@H](CCCCN)NC(=O)[C@H](CC(N)=O)NC(=O)[C@H](C)NC(=O)[C@H](CC(C)C)NC(=O)[C@H](C)NC(=O)[C@H](CO)NC(=O)[C@H](Cc3ccc(O)cc3)NC(=O)[C@H](CC(C)C)NC(=O)[C@H](CCC(N)=O)NC(=O)c3ccc(-c4c5ccc(=[N+](C)C)cc-5oc5cc(N(C)C)ccc45)c(C(=O)[O-])c3)CSSC[C@H](NC(=O)CNC(=O)[C@H](C(C)C)NC(=O)[C@H](Cc3c[nH]cn3)NC2=O)C(=O)N[C@@H]([C@@H](C)O)C(=O)N[C@@H](CCCCN)C(=O)N[C@@H](CCCNC(=N)N)C(=O)N[C@@H](CO)C(=O)N[C@@H](CC(C)C)C(=O)N[C@@H](C)C(=O)N[C@@H](CCCNC(=N)N)C(=O)N[C@@H](Cc2ccccc2)C(=O)N[C@H](C(=O)O)CSSC[C@@H](C(=O)NCC(=O)N[C@@H](CCSC)C(=O)N[C@@H](CO)C(=O)N[C@H](C(=O)N[C@@H](Cc2c[nH]c3ccccc23)C(=O)N[C@@H](CO)C(=O)O)[C@@H](C)O)NC1=O | Relaxin receptor 1 (RXFP1, Homo sapiens, UniProt Q9HBX9, F76A/Y80A) | binding, NanoBRET | – | added: relaxin 1 µM | – | dissociation plateau | 8.8% |
| CN[C@H]1CC[C@@H](c2ccc(Cl)c(Cl)c2)c2ccccc21 | Voltage-dependent P/Q-type calcium channel subunit alpha-1A | ion current, antagonist, automated patch clamp | – | – | – | IC30 | 0.955 µM |
| O=C(NC1CCC1)c1ccc2nc(-c3cccc(NS(=O)(=O)NCCN4CCCCC4)c3)cn2c1 | PIK3CA (Homo sapiens, UniProt P42336, E542K) | enzyme activity | – | 10 µM | – | remaining activity | 96% |
| Cc1ccc(NC(=O)C(C#N)=Cc2cccc(F)c2)cc1 | UCHL1 | covalent, intact protein LC-MS | – | 12.5 µM | – | labelling | 16.7% |
| Nc1ncnc2c1ncn2[C@@H]1O[C@H](COP(=O)(O)CP(=O)(O)OP(=O)(O)O)[C@@H](O)[C@H]1O | P2X purinoceptor 1 (P2RX1, Homo sapiens, UniProt P51575, K136W) | saturation binding | HEK293 | 103 nM | – | specific binding | 3420 CCPM and 4640 CCPM |
| C#CCCC1(CC[C@H](NC(=O)NCCCCCCNC(=O)NCCN)C(N)=O)N=N1 | FKBP1A (Homo sapiens, UniProt P62942) | photoaffinity labeling, in-gel fluorescence, measured: Alexa Fluor 647 click label | – | 40 µM, UV irradiation 365 nm | reference: probe over FKBP12 signal, higher = more labeling | normalized labeling ratio | 0.185 |
| CCC1(O)CCCN(C(=O)c2ccc(-c3ccc(F)c(NC(=O)CCl)c3)cc2)C1 (stereo not shown) | DNA dC->dU-editing enzyme APOBEC-3B, C-terminal domain (Homo sapiens, UniProt Q9UH17) | covalent modifier, intact protein mass spectrometry, measured: adduct +25721 Da | – | 25 µM, 1 h, 1-fold molar excess | – | protein adduct | 11.5% |
| Fc1ccc([C@@H]2CCNC[C@H]2COc2ccc3c(c2)OCO3)cc1 | Voltage-dependent P/Q-type calcium channel subunit alpha-1A | ion current, antagonist, automated patch clamp | – | – | – | IC30 | 1.27 µM |
| CC(C)Cc1ccc(CNS(=O)(=O)c2ccccc2C(=O)O)cc1 | malate dehydrogenase | enzyme activity, inhibitor | – | 200 µM, pH 7.0, 1% DMSO, aggregation counter-screen | – | remaining activity | 93% |
| COCc1noc(CN2CCN(C(=O)C(C)Cl)CC2)n1 (stereo not shown) | UCHL1 | covalent, intact protein LC-MS | – | 12.5 µM | – | labelling | 18.3% |
| Oc1ccc([C@@H]2c3c(O)cc(O)cc3[C@@H]3c4c(cc(O)c5c4[C@@H]2[C@H](c2ccc(O)cc2)[C@H]5c2cc(O)cc4c2[C@@H](c2cc(O)cc(O)c2)[C@H](c2ccc(O)cc2)O4)O[C@H]3c2ccc(O)cc2)cc1 | Alpha-amylase 1A (AMY1A, Homo sapiens, UniProt P0DUB6) | enzyme activity, inhibitor | salivary | concentration not given | – | Vmax | 687 ± 221 µmol/min |
| Cc1ccc(N2C(=O)C3C4c5ccccc5C(C=O)(c5ccccc54)C3C2=O)cc1 (stereo not shown) | UCHL1 | covalent, intact protein LC-MS | – | 12.5 µM | – | labelling | 9.55% |
| CCC(=O)NC[C@@H]1C[C@H]1c1cccc2c1CCO2 | Voltage-dependent P/Q-type calcium channel subunit alpha-1A | ion current, antagonist | HEK293 | 30 µM | – | inhibition | 1% |
| COc1c(Cl)cc(Cl)cc1C=C(C#N)C(N)=O | UCHL1 | covalent, intact protein LC-MS | – | 12.5 µM | – | labelling | 40.6% |
| C1=C/COCc2cc(ccc2OCCN2CCCC2)Nc2nccc(n2)-c2cccc(c2)COC/1 | EGFR (Homo sapiens, UniProt P00533) | – | – | concentration not given | – | percent of control | 75% |
